Assay results from different studies.
Each numbered part is a random draw from the data of one study; scales do not carry over between parts.

Study 1
Target: Ras GTPase-activating protein-binding protein 1, C-terminal RGG region (G3BP1, Homo sapiens, UniProt Q13283)
UniProt Q13283, sequence (whole entry, looked up): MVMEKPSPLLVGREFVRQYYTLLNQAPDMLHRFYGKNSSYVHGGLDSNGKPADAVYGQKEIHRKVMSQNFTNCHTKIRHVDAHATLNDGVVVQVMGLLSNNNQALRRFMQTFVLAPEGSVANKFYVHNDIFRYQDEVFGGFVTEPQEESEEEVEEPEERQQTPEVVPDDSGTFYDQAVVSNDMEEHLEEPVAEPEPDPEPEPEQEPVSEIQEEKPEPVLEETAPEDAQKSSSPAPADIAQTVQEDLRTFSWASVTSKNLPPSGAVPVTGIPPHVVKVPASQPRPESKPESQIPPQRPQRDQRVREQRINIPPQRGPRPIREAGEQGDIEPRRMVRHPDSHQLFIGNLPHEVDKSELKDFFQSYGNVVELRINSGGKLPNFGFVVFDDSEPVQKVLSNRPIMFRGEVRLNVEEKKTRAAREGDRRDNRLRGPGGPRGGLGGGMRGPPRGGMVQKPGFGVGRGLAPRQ
Technique: RNA Bind-n-Seq
Molecule type: RNA
Matrix: in vitro
Tested at: 1 µM
Setting: whole 134-nt RNA, ends assumed
With: 150 mM KCl
Relative to: input library
Reading: higher = stronger binding
| Sequence | log2 enrichment |
| --- | --- |
| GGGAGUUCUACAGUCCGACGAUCGGGCCCUGGUGGCAUGCGGGGAGGAAGAGGUGGCCUCAUGGAUCGUGGUGGUCCCGGUGGAAUGUUCAGAGGUGGCCGUGGUGGAGACAGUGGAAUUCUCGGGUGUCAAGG | 2.14 |
| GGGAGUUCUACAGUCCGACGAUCUCACUUUAGAGGAGGAUCUGAUGGAUAUGGCAGUGGACGUGGAUUUGGGGAUGGCUAUAAUGGGUAUGGAGGAGGACCUGGAGGUGGCAAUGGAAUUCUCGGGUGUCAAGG | -1.11 |
| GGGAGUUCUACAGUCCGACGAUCCACAGACAACACGCACCCAGACAGACACAGAGGGAAGGGGUUGGGAUGGGGACAGGGUGCACAGCAGGGCGGGGUAGGACCCCAGCCCCUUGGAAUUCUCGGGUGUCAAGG | -0.157 |
| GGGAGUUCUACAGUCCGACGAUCUCAAGUCCUGUGCUACACAUCGUAUGUACCGAAUCGGGAGGGAGGGAAAAAGGGAAAGUAUUAUGUUACGCCGUUCGGAUCUGCACUUCCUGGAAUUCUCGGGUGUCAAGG | 1.7 |
| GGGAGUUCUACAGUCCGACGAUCUGUACAAACACUUUCCCAUCCCCCUCAUUAACCGGCUGGAGAAGCACUAUCUGGAUAUCAACACGGUGCUGGAGAAAUGGCAGAAGAGCAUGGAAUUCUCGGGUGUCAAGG | -0.916 |
| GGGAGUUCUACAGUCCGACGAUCCCUCAAGUCCUGUGCUACACAUCGUAUGUACCGAAUCGGUUUUUGGUGGUGGAAAGUAUUAUGUUACGCCGUUCGGAUCUGCACUUCCAGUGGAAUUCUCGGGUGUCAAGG | -0.675 |
| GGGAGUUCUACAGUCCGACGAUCGUCCUGUGCUACACAUCGUAUGUACCGAAUCGGGCCCCCGGGGCCCCCGGGCCCCCGGAAAGUAUUAUGUUACGCCGUUCGGAUCUGCACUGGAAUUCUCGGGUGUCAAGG | -1.8 |
| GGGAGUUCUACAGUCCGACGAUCUGCAGACGGGGAACCUGCUGAACUGGGGCCGCCUGCGGAAGAAGUGCCCGUCCACGCACAGCGAGGAGGUGAGCGUGGCGACACUCGCCGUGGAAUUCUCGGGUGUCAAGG | -1.76 |
| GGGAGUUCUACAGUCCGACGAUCUCAAGUCCUGUGCUACACAUCGUAUGUACCGAAUCGGCCCGGGGCCCGGGCCCGGAAAGUAUUAUGUUACGCCGUUCGGAUCUGCACUUCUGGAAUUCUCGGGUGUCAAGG | -1.85 |
| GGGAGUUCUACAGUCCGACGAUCUCUCUUAUGCUAUUGGAGUUUCUCAUCCAUUAUCUAUCUCCAUUUUCCAUUAUGGUACCUCUCAGAAGAGUGAGAGAGAGCUAUUAGAGAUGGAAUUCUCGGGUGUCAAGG | -1.51 |

Study 2
Target: RNA binding protein fox-1 homolog 2, RRM domain, GST-SBP tag (RBFOX2, Homo sapiens, UniProt O43251-10, residues 100-194)
Technique: RNA Bind-n-Seq
Molecule type: RNA
Matrix: in vitro
Tested at: 365 nM
Setting: natural RNA segment, single round, ends assumed
Relative to: no-protein control
Reading: higher = stronger binding
Construct (chain): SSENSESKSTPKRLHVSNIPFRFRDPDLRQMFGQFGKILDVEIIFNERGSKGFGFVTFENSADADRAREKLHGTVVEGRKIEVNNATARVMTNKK
| Sequence | RBNS enrichment (R) |
| --- | --- |
| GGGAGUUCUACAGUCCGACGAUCCAUUUCCUCUUUCCAAGACCAACCUACAAUUUUCCCUUGAUAACCAUAUAAAUUCUGAUUUAAGGUCCUAAAUUCUUAACCUGGAACUGGAGUUGGCAAUACCUAGUUCUUGGAAUUCUCGGGUGCCAA | 0.536 |
| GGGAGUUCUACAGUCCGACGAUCUUUGCACUUUGAUGGGCAUUAAAAAAAAUAGCCCUCACAAGAUAGUAACCUCAAAUUCCUGUUCUUGGUUCUUAUUUAAGCAUGGGUCUUCAUUCAACUCAGAAGGCCUGUGGAAUUCUCGGGUGCCAA | 0.68 |
| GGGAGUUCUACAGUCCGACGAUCUAAAAUAUCCACUGGACACUGUGAAAUACACUAACAGGAUGGCUGGGUAGAGCAAUCUGGGCACUUUGGCCAAUUUUAGUCUUGCUGUUUCUUGAUGCUCACCUCUAUAUUGGAAUUCUCGGGUGCCAA | 0.279 |
| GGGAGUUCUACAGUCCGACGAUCUUCUUGACCAUUCAUUUUAUCACUUCUAACCUUGAAACAUGUGGAAGUAGCUAUGUUCCUGACUGUUUCCUCUGCCAGACAAUGAACUCUGGAGAUCAGGGAGCUUCGUGUGGAAUUCUCGGGUGCCAA | 0.492 |
| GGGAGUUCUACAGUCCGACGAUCGAAGCUGAUGCCAGCAUGUCACUGGUUUUGAAGGGAUGAGCCCAGACUUGAUGUUUUGGGAUUGUCCUUAUUUUAACCUCAAGGUCUCGCAUGGUGGGGCCCCUGACCAAUGGAAUUCUCGGGUGCCAA | 1.14 |
| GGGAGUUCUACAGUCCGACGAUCUCUGGAAGAACAGCCAGCUUGGAAGUUUUACAGCAAUAAUGUUGCAGUGGAAUAUUAUUUGUAGUUAAGGUCAUCCUCCUCCCCUUUCUGUUUUUUUAAAUCAAGAACUAUGGAAUUCUCGGGUGCCAA | 0.345 |
| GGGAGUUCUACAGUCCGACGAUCUAGCUGGAGUGUGUGCUGCCUUUCAGGUACAACUUUUAUGUAAUAAAAGCCAGAGCAUUAAGCUUACACAGACUACUUUCUAUGCAAGACAGAGAUAUGGACUAGGUUACUGGAAUUCUCGGGUGCCAA | 0.221 |
| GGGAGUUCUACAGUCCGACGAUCCAAAUUGAGUUGAUGGAUUUAAGAUAAGCCUUUGGGGUUCCUGUCAGUUUUCUGGGCCCUGAGGAAGGGUUGGGCCUCCUUUACUCUCAGUAUUUUGAGUGUUUUUCAAAUGGAAUUCUCGGGUGCCAA | 0.551 |
| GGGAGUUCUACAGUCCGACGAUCUAUGUCUGAAGGUUUUAAAUAGUGGUUGACCCAACACCUUGGACUGAAAUUUUGAAAAGUUUUGAAAAAAGACUGCUAGACUUAGAGAGAGAAGCCAGAACAAAUUCCGCUGGAAUUCUCGGGUGCCAA | 0.676 |
| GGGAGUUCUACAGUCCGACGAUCAGUCUUUAUGAUAACCUAAUUUUUAAAAAUGAAUUUGACUAACUUAAGUGCAAAACAUGUAAAUUUGGUUCCCAGAGUGGGCCAAUCUCUCUGUUCUUGUUAUCUUAGCCUGGAAUUCUCGGGUGCCAA | 0.578 |
| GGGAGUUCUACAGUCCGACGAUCCUACACAGGGUCUGGUUUUAAAAGUAGAGGGAAACCUCUCCUCCCCUGGUCUUUGUAGCCAUCUUUGUCCUCUGAAAUGAGGAACCGAUCCUCUUUAAAGUUCCCAAAUAUGGAAUUCUCGGGUGCCAA | 0.21 |
| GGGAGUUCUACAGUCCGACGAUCGCUUCUGAUUGCAAAUUUCAGAGGCCUGGCGACCCUCAGUCAGCUCAGGAUAAAGCACGGAUGGAUAAAGAAUAUUUGUCCCUUAUGGCUGAGCUAGGGGAAGCUCCUGUUGGAAUUCUCGGGUGCCAA | 0.498 |

Study 3
Target: Sal-like protein 4, full length isoform B (SALL4, Homo sapiens, UniProt Q9UJQ4-2, residues 1-616)
Technique: universal PBM
Molecule type: double-stranded DNA, one strand shown
Matrix: in vitro
Tested at: not given
Setting: 8-mer, flanks averaged, mean of replicates
Reading: higher = stronger binding
Target sequence (chain): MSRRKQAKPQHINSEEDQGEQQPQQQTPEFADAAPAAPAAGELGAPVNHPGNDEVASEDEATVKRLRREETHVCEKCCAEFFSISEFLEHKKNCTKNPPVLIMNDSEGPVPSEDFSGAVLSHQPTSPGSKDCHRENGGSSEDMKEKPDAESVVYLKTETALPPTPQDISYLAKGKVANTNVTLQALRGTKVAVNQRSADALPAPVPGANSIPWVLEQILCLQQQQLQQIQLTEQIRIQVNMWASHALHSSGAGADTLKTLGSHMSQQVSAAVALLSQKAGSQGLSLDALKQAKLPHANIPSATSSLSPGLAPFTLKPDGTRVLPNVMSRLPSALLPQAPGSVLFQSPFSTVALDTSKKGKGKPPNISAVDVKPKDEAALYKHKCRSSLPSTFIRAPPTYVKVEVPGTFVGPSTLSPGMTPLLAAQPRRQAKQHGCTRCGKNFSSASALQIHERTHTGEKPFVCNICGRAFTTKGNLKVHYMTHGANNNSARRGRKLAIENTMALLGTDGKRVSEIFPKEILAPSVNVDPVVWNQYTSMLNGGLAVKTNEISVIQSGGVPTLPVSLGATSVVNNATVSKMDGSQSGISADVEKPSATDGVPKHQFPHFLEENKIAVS
| Sequence | E-score |
| --- | --- |
| CACTACGA | 0.0413 |
| TATCGACA | 0.0173 |
| TGGGAGAA | 0.0139 |
| CATCGAGC | -0.201 |
| CAAACTAC | 0.0733 |
| TCCTAACA | 0.137 |
| CCCTACGA | -0.0578 |
| AGACTGTC | -0.0219 |
| ACTGGAAG | -0.146 |
| CAAAATTA | 0.343 |
| CAAGGGGA | -0.142 |
| GGCAAAGA | 0.0498 |
| CCGTGTAC | -0.12 |
| AAGCGTGG | -0.285 |
| CAAGCTGG | -0.144 |
| ATCCCTGC | 0.0403 |
| CAAGCCGA | -0.173 |
| AACGTCGA | 0.125 |
| GAACTACC | 0.0103 |
| AAGGTTCA | 0.0109 |
| AAGAGGCT | -0.00875 |

Study 4
Target: RING finger protein unkempt homolog, zinc fingers 1-6, GST-SBP tag (UNK, Homo sapiens, UniProt Q9C0B0, residues 30-357)
UniProt Q9C0B0, sequence (30-357, looked up): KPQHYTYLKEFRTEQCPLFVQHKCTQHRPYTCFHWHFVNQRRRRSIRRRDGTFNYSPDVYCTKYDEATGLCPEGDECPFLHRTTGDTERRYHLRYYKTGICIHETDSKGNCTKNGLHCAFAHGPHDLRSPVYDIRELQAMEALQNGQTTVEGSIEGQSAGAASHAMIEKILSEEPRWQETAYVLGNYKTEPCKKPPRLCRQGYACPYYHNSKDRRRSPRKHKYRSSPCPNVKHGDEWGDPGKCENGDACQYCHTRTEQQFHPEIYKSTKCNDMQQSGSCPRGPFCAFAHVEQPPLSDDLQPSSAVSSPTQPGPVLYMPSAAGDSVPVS
Technique: RNA Bind-n-Seq
Molecule type: RNA
Matrix: in vitro
Tested at: not given
Setting: RNA with constant flanks, ends assumed
Relative to: input RNA pool
Reading: higher = stronger binding
| Sequence | bound/input enrichment |
| --- | --- |
| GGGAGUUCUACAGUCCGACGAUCUGUGCAUAUGAUGCUUGAGAUGGUUUUUGCAAAAGCAGAAAUCGCUGCAAGGUAAUCACAACCGAUAAAAGUGGUAUUUUAAACCUUUGAAAUAAAUGGAUGUAACUGUACCUUGGUACACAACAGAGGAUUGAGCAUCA | 0.182 ratio |
| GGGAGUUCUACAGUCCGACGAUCGAGAUGAGGGCAAGAGCGAUUAAAGCCCUAAUGAAAGCUGGUGAUAUAAAAAAGCCAGCCCCGGUAUUUAACUUGAUUUUGAAUUUUAGGUAUGUUUGAACAAAGCCACAUCAUUUAAUUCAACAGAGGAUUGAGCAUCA | 0.375 ratio |
| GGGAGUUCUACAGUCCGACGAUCACCUUGUUUAAUGCAGAAAGAGACCUUGAAAGGUCAGUCAUGAAAUCUGGUUUGAUUAUUAACCGCUAUCUUUUAGGAAGAAGCUUUUUCCCUAUGUACGAUGUCAUACUGCAGACUUAACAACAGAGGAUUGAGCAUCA | 1.17 ratio |
| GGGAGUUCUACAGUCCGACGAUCGUUGGAGAUACUCAGGUGGUGGUUUUUAAGCAUGAAAAGGAAGAUGGCGCCAUUUCUACCACCGUACUUCGAGGCUCUACAGACAAUCUGAUGGAUGACAUAGAAAGGGCAGUAGACGAUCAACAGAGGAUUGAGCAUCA | 0.673 ratio |
| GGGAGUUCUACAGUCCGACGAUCUACUUACCUCUUGCAAAAAAAAGAAAAAAGAAAAAAGUUCAUUUAUUCAUUCUGUUUCUAUACCGCAAAACUGAAUGUCAAAAGUACCUUCUGUCCACACACACAAAAUCUGCAUGUAUUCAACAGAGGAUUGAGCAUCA | 0.405 ratio |
| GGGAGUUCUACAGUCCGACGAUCAUGGAUCCUCCAUCAAAGAAUUGUCUUUCUUUUAAUGUCAUUAGUCACCAAGGUUGCAUAAUCCGCAACCUUGUAGUAGCCUGUAGCACAGUGGGAUCUGCAUAUCUUCCGUCUAGUUACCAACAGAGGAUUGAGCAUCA | 2.11 ratio |
| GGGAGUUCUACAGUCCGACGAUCAGUAUAUCCAGCAGGGAUGUUCAGCCUGUUGCCUAUGAAGAGCCUAAACAUUGGUGUUCAACCGUCUACUAUGAAUUAAACAAUCGUGUUGGAGAAGCUUUUCAUGCAUCUUCUACUAGUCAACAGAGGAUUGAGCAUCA | 0.25 ratio |
| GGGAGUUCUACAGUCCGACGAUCGUACGUCAUUCAAGUGUUUAAUGGUAAAGGUGUAUUAUAAGGAUAGUGCUAGAAGCUUUCACCGACUGUAAAGAGUUCCAUGGAGUAUUAAACCCAUAGUUGGAAAGGUCUGAGGGCCCACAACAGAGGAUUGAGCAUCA | 0.375 ratio |
| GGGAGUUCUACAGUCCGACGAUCGACAUGGAAACAUAUGAGAGACUGAGAGAAAAACAUGGAGAAGAGUUUUUCCCAACAUCCAACCGUCUUCUUCAUGGAACACAUGUGCCUUCCACAGAGGAAAUUGACAGGAUGGUCAUACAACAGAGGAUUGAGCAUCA | 0.188 ratio |
| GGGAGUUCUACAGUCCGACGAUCAUUUUAUACCCCAAUAAUCAACUCGUUUUUAUAUUAAUGUACUUGUUUCUCUGUUGUAAGAACCGGCAUUAACACAAAGGAGGCGUCUCGGGAGAGGAUUAGGUUCCAUCCUUUACGUGUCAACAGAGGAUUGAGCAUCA | 2.84 ratio |
| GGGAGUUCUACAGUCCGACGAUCUUUCCUGGGAACAGCACCCAGUACAACAUCCUGGAAGGGUUGGAAAAGCUCAAACAUCCCGACUUUCUGAAGCAGCCACUGGCCACCCAAAAGGAUCUCACUGGCCAGGUGCCCACUCCUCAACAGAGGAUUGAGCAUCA | 0.14 ratio |
